Values quoted from earlier work that unrelated publications cite.
Each line is one published result; not all experiments were run side by side.

(-)-epicatechin gallate  cytopathic effect inhibition (SARS-CoV-2; viral replication; Vero E6; 20 µM): -0.22%
Cc1ccc(NC(=O)c2ccc(CN3CCN(C)CC3)cc2)cc1Nc1nc(-c2cccnc2)cs1  IC50 (SARS-CoV-2; viral replication): 3200 nM
MLEPFQILSISSFILSALHFMAWTIGHLNQIKR (BM2 transmembrane domain (Influenza B virus))  pKa (solid-state NMR, item: His27; peptide, lipid membrane; highest macroscopic tetrad pKa): 7.9
Plantazolicin  MIC (Bacillus anthracis; Sterne): 32 µg/mL
Thimerosal  inhibition (SARS-CoV-2; cytopathic effect; Caco-2; 10 µM): 79.4%
iberiotoxin  Kd (KCa1.1; whole-cell patch clamp): < 1 nM
nirmatrelvir  IC50 (SARS-CoV-2; viral replication): 74.5 nM
M2 transmembrane peptide (Influenza A virus)  pKa (solid-state NMR, item: His37; virus-mimetic membrane with cholesterol; membrane-bound tetramer, macroscopic, third protonation): 4.9

For quick reference, copied from above:
(-)-epicatechin gallate  cytopathic effect inhibition (SARS-CoV-2; viral replication; Vero E6; 20 µM): -0.22%
